Published values from different studies.
Each line is one published result; not all experiments were run side by side. Numbers after ± are the reported error.
rhlR: HTH-type quorum-sensing regulator RhlR (rhlR, Pseudomonas aeruginosa, UniProt P54292)
Sequence of UniProt P54292 (whole entry, looked up): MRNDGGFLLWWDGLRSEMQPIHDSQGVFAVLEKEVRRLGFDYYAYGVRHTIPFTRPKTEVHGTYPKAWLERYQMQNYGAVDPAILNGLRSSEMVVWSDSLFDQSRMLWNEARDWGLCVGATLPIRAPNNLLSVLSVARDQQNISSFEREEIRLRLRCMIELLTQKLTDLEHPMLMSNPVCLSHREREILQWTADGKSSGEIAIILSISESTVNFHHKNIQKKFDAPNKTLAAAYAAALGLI
MPO: Myeloperoxidase (MPO, Homo sapiens, UniProt P05164)
Sequence of UniProt P05164 (whole entry, looked up): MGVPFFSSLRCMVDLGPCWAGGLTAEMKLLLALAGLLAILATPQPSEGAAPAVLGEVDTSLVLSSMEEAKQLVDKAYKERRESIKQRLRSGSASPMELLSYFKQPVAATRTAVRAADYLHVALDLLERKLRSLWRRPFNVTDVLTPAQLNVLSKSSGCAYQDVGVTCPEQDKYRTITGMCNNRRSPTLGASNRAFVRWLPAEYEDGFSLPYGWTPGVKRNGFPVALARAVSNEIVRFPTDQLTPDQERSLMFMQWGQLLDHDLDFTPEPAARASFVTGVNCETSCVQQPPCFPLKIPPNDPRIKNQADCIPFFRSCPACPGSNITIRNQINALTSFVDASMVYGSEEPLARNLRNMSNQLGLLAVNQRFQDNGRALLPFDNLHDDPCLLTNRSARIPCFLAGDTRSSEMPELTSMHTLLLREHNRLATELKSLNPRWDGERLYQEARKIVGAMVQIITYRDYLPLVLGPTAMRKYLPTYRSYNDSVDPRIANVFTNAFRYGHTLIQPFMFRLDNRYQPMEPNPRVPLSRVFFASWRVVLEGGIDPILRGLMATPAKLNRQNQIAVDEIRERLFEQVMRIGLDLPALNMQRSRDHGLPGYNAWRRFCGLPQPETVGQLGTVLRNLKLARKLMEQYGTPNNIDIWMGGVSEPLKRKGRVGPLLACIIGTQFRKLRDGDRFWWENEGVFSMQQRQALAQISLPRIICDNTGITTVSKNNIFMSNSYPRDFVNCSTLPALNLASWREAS
Astl: Astacin-like metalloendopeptidase (Astl, Mus musculus, UniProt Q6HA09)
Sequence of UniProt Q6HA09 (whole entry, looked up): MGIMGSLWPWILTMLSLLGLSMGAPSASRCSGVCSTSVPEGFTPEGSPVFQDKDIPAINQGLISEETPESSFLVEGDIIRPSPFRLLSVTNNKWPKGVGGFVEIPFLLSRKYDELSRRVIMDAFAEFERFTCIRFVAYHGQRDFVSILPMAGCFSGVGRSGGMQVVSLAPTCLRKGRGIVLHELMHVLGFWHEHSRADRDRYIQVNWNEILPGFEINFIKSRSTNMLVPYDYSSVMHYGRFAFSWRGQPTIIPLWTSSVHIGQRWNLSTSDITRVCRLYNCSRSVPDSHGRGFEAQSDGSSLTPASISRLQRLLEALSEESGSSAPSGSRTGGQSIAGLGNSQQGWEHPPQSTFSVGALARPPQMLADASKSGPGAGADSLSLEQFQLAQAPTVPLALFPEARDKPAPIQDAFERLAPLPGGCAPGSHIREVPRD
MAP4K1: Mitogen-activated protein kinase kinase kinase kinase 1 (MAP4K1, Homo sapiens, UniProt Q92918)
Sequence of UniProt Q92918 (whole entry, looked up): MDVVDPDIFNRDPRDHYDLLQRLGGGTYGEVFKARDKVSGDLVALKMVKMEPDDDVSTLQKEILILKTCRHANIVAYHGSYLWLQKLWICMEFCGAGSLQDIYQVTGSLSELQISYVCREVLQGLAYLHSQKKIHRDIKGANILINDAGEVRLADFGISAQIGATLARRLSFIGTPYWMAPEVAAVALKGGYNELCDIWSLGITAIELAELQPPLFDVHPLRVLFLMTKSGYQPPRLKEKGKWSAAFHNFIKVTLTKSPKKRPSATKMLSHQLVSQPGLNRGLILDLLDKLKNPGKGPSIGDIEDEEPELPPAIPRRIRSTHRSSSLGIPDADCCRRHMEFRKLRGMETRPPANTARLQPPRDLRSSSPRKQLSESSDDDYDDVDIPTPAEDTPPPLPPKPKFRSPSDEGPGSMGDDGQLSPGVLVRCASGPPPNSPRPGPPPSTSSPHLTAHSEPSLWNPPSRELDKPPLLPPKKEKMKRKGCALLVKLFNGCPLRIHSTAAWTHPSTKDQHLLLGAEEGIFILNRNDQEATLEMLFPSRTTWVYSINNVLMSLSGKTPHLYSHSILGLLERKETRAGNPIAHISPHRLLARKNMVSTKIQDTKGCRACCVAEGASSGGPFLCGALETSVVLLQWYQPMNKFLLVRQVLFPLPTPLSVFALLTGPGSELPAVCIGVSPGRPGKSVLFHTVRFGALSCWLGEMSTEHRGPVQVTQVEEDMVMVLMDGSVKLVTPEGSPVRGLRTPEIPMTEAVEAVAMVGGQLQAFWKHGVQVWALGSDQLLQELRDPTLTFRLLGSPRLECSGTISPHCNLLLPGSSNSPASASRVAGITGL
BRAF: Serine/threonine-protein kinase B-raf (BRAF, Homo sapiens, UniProt P15056)
Sequence of UniProt P15056 (whole entry, looked up): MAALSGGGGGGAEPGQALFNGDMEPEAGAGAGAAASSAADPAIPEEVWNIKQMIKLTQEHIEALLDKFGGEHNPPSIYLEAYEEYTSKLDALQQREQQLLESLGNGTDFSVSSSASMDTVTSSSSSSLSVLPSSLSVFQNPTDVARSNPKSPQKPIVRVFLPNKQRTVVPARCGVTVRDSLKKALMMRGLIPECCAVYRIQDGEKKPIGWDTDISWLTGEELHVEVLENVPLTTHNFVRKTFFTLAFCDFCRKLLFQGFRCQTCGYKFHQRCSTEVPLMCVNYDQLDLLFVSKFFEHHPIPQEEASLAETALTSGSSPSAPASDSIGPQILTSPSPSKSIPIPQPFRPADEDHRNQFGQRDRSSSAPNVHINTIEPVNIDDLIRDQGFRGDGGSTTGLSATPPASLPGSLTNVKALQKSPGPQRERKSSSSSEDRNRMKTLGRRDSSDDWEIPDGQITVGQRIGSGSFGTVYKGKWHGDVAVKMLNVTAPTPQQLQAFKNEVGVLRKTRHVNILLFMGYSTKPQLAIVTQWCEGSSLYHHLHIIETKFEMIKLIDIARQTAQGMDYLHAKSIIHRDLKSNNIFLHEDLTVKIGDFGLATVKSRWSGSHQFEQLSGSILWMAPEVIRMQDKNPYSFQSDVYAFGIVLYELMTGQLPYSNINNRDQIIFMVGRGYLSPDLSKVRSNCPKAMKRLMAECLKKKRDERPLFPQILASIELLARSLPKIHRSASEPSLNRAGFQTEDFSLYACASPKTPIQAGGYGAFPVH
CDK16 with cyclin Y: Cyclin-dependent kinase 16, with cyclin Y (CDK16, Homo sapiens, UniProt Q00536)
Sequence of UniProt Q00536 (whole entry, looked up): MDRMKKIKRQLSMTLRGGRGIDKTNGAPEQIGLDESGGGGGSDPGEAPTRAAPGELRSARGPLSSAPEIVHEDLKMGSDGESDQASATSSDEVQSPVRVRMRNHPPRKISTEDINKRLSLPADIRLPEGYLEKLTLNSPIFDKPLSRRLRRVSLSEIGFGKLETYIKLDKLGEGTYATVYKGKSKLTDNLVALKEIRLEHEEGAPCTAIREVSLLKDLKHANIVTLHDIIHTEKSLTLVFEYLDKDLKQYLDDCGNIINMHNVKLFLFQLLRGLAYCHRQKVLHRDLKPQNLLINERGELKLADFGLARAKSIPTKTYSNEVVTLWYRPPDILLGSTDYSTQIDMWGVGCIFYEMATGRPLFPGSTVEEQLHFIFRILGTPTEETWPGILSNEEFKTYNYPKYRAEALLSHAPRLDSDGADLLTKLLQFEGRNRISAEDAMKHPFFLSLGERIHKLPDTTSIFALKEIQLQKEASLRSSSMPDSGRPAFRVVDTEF
DCLK1: Serine/threonine-protein kinase DCLK1 (DCLK1, Homo sapiens, UniProt O15075)
Sequence of UniProt O15075 (whole entry, looked up): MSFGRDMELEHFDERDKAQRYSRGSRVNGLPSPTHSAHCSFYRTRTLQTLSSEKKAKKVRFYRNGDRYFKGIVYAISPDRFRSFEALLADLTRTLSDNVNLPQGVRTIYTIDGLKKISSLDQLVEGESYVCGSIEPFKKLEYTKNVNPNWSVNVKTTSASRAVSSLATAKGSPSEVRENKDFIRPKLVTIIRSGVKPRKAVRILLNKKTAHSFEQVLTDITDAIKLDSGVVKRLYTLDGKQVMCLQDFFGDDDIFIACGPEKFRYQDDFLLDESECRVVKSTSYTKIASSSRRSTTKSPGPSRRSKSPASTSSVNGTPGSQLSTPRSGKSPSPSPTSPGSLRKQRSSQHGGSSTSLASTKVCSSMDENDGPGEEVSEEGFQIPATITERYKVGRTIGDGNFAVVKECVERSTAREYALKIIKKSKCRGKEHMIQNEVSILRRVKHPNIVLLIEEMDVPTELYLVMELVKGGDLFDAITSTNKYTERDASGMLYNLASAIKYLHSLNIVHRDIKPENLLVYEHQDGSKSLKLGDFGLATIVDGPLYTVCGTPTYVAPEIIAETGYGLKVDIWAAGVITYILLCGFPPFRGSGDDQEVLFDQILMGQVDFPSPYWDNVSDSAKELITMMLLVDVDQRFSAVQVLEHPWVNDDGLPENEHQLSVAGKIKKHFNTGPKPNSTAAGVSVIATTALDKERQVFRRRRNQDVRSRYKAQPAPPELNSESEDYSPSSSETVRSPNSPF
Sequence of UniProt Q13188 (whole entry, looked up): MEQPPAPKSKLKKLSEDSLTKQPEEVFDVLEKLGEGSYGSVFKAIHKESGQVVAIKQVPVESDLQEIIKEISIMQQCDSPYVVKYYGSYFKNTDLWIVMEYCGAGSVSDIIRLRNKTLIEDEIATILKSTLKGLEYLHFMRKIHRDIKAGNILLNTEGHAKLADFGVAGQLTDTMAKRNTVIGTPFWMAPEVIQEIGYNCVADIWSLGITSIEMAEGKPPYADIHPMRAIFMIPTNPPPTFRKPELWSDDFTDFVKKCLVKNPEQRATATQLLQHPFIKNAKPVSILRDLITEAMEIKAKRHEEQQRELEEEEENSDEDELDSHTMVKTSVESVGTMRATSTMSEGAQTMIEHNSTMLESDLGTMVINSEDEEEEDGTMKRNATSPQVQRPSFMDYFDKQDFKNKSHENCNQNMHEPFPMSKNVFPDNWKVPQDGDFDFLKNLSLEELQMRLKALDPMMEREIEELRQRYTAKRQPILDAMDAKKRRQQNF

SMILES	target	assay	setting	how to read	remaining activity
O=C1NC(=O)/C(=C/c2ccc(-c3ccc(F)cc3O)o2)S1	STK3 (Homo sapiens, UniProt Q13188)	enzyme activity	10 µM		60%
COc1cc(Nc2ncc3c(n2)-c2ccc(Cl)cc2C(c2c(F)cccc2OC)=NC3)ccc1C(=O)O	FGFR3 K650E	kinase activity	1 µM		37%
CCC(C)C(=O)C#Cc1ccc(O)c(OC)c1 (stereo not shown)	rhlR	reporter gene, inhibitor, quorum sensing reporter strain	10 µM, 1.5 h	reference: DMSO	93%
CC(C)OCCn1c(=S)[nH]c(=O)c2[nH]ccc21	MPO	LDL lipid peroxidation, inhibitor, cholesteryl ester hydroperoxide	10 µM		8.66%
O=C(CCN(Cc1ccc2c(c1)OCO2)Cc1ccc(Cl)cc1F)NO	Astl	enzyme activity, inhibitor, fluorogenic	0.25 µM		83 ± 2%
COc1cc(C#CC(=O)c2cccc(Cl)c2)ccc1O	rhlR	reporter gene, inhibitor, quorum sensing reporter strain	10 µM, 1.5 h	reference: DMSO	63%
Cc1cc(NC(=O)c2cccc(NC(=O)/C=C/CN(C)C)c2)ccc1Nc1nccc(-c2cccnc2)n1	MAPK8 (Homo sapiens, UniProt P45983)	enzyme activity, inhibitor	4.938 µM, 0 h, unit not given, added: GSH 10 mM pre-incubation	reference: vehicle	0.068
O=C(CCN(Cc1ccc2c(c1)OCO2)Cc1ccc(Cl)c(O)c1F)NO	Astl	enzyme activity, inhibitor, fluorogenic	0.25 µM		80 ± 6%
COc1cc(F)ccc1-c1ncnc(Nc2cccc(C[S@](C)(=N)=O)c2)n1	ROS1 (Homo sapiens, UniProt P08922)	kinase activity	10 µM, added: 10 µM ATP		90%
O=C(CCN(Cc1ccncc1)Cc1ccc(Cl)c(O)c1F)NO	Astl	enzyme activity, inhibitor, fluorogenic	0.25 µM		77 ± 7%
COc1ccc(F)cc1C(=O)NCc1ccc(-c2nn([C@@H](C)C(F)(F)F)c(N)c2C(N)=O)cc1	MAP4K1	kinase activity, inhibitor, HotSpot radiometric	100 nM, added: ATP 10 µM		79.7 ± 1.3%
Cc1cc(Nc2cc(N3CCN(C)CC3)nc(Sc3ccc(NC(=O)C4CC4)cc3)n2)[nH]n1	SGK2 (Homo sapiens, UniProt Q9HBY8)	kinase activity, KinaseProfiler	0.03 µM, species human	reference: control	59%
COc1cc(-c2cncc3c2CN(C)Cc2cc(N4CCNCC4)ccc2-3)cc(OC)c1OC	BRAF	kinase activity	1 µM, human enzyme, added: ATP 10 µM	reference: DMSO control	96%
CNc1ncc2c(/C=C/C(=O)N3CCC(OC)CC3)nn(Cc3cccc(C(F)(F)F)c3)c2n1	CDK16 with cyclin Y	kinase activity, inhibitor	1 µM	reference: untreated control	98%
C=CC(=O)N1CCC([C@@H]2CCNc3c(C(N)=O)c(-c4ccc(Oc5ccccc5)cc4)nn32)CC1	MAP4K1	kinase activity, inhibitor, HotSpot radiometric	100 nM, added: ATP 10 µM		86.9 ± 2.1%
NC/C(=C\F)COc1cccc(Cn2c(=S)[nH]c(=O)c3[nH]cnc32)c1	MPO	LDL lipid peroxidation, inhibitor, cholesteryl ester hydroperoxide	0.0556 µM		26.5%

SMILES	target	assay	setting	how to read	remaining activity
O=C(C#Cc1ccc(F)c(F)c1)c1cccc(Cl)c1	rhlR	reporter gene, inhibitor, quorum sensing reporter strain	10 µM, 1.5 h	reference: DMSO	72%
CC#CC(=O)N1CCC[C@H]1c1nc(-c2ccc(C(=O)Nc3ccccn3)cc2)c2c(N)nccn12	CDK16 with cyclin Y	kinase activity, inhibitor, HotSpot radiometric	100 nM, added: ATP 10 µM		97.3 ± 3.4%
COc1cc(C#CC(O)c2ccccc2)ccc1O (stereo not shown)	rhlR	reporter gene, inhibitor, quorum sensing reporter strain	10 µM, 1.5 h	reference: DMSO	60%
Nc1ncc2c(n1)-c1c([nH]c3ccc(-c4ccc(F)cc4)cc13)CCC2	TTBK2 (Homo sapiens, UniProt Q6IQ55)	kinase activity, inhibitor, radiometric	1 µM, added: ATP at Km		81%
COc1cc(C#CC(=O)c2ccccc2OC)ccc1O	rhlR	reporter gene, inhibitor, quorum sensing reporter strain	10 µM, 1.5 h	reference: DMSO	52%
O=C(NC1CCC1)c1ccc2nc(-c3cccc(NS(=O)(=O)NCCN4CCCCC4)c3)cn2c1	PRKAA2 (Homo sapiens, UniProt P54646)	enzyme activity	10 µM		88%
COc1ccccc1C(=O)C#Cc1ccc(F)c(F)c1	rhlR	reporter gene, inhibitor, quorum sensing reporter strain	10 µM, 1.5 h	reference: DMSO	50%
CCOc1cc(N2CCN(C)CC2)ccc1Nc1nc(N)n(C(=O)NCc2ccccc2S(=O)(=O)C(C)C)n1	DCLK1	enzyme activity	10 µM	reference: control	1.6%
O=C(CCN(Cc1cccnc1)Cc1ccc2c(c1)OCO2)NO	Astl	enzyme activity, inhibitor, fluorogenic	0.25 µM		82 ± 5%
O=C(O)c1ccc(Nc2ncc3c(n2)-c2ccc(Cl)cc2C(c2c(F)cccc2F)=NC3)cc1	MLCK(h)	kinase activity	1 µM		95%
COc1cc(N2CCN(C)CC2)ccc1Nc1nc(N)n(C(=S)NCc2c(Cl)cccc2Cl)n1	FGFR4 (Homo sapiens, UniProt P22455)	enzyme activity	10 µM	reference: control	0%
C=CC(=O)N1CCC[C@@H](n2nc(-c3ccc(Oc4ccccc4)cc3)c3c(N)ncnc32)C1	ATM (Homo sapiens, UniProt Q13315)		0.1 µM		860%
C=CC(=O)N1CCC[C@@H](n2nc(-c3ccc(Oc4ccccc4)cc3)c3c(N)ncnc32)C1	BRAF	kinase activity, inhibitor, HotSpot radiometric	100 nM, added: ATP 10 µM		86.8 ± 0.5%
COc1cccc(C(=O)C#Cc2ccc(F)c(F)c2)c1	rhlR	reporter gene, inhibitor, quorum sensing reporter strain	10 µM, 1.5 h	reference: DMSO	55%
CC(C)Oc1cc(N2CCN(C)CC2)ccc1Nc1nc(N)n(C(=O)NCc2ccccc2S(=O)(=O)C(C)C)n1	DCLK1	enzyme activity	10 µM	reference: control	1.8%

Excerpt of the above:
SMILES	target	assay	setting	how to read	remaining activity
COc1cc(N2CCN(C)CC2)ccc1Nc1nc(N)n(C(=S)NCc2c(Cl)cccc2Cl)n1	FGFR4 (Homo sapiens, UniProt P22455)	enzyme activity	10 µM	reference: control	0%
Cc1cc(NC(=O)c2cccc(NC(=O)/C=C/CN(C)C)c2)ccc1Nc1nccc(-c2cccnc2)n1	MAPK8 (Homo sapiens, UniProt P45983)	enzyme activity, inhibitor	4.938 µM, 0 h, unit not given, added: GSH 10 mM pre-incubation	reference: vehicle	0.068
